Experimental data from different studies.
Every numbered part comes from another study and shows a few of its results, in no order.

Study 1 — method: protein binding microarray; form: double-stranded DNA, one strand shown; matrix: in vitro; concentration: not given; baseline: not given; direction: higher = stronger binding; measurement: E-score
Target: Histone acetyltransferase KAT6A, winged helix 1, GST fusion (KAT6A, Homo sapiens, UniProt Q92794, residues 1-85)
Setting: 8-mer, flanks averaged, mean of 2 arrays, mostly near background
Target sequence (chain): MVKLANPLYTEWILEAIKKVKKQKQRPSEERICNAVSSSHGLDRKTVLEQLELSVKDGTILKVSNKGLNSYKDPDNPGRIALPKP
CAAGAGAA: -0.128
ATTGACAC: 0.0265
CTCGGTAC: 0.0415
CAATTTAA: -0.213
AGCTCCCA: -0.194
CGTTCCTC: 0.0264
ACCAGAGT: -0.0901
ATAAGATA: -0.0862
ACCGCATA: 0.13
CTTTTGGC: -0.0455
ATCCTTGG: -0.181
CACCTTGC: -0.0841
ACGACGAG: -0.295
CATTTCAC: -0.146
ATTTCTTA: -0.225
CGATTTGC: -0.0269
TCGACGAA: -0.107
AGGCAGGC: 0.0239
ACATTCCT: -0.251

Study 2 — method: EMSA with sequencing; form: double-stranded DNA, one strand shown; matrix: in vitro; concentration: 10 and 20 nM; baseline: negative control set to 0; direction: higher = stronger binding; measurement: normalised bound fraction
Target: Hepatocyte nuclear factor 3-alpha (Foxa1, Mus musculus, UniProt P35582, residues 1-468, full length assumed)
Sequence of UniProt P35582 (whole entry, looked up): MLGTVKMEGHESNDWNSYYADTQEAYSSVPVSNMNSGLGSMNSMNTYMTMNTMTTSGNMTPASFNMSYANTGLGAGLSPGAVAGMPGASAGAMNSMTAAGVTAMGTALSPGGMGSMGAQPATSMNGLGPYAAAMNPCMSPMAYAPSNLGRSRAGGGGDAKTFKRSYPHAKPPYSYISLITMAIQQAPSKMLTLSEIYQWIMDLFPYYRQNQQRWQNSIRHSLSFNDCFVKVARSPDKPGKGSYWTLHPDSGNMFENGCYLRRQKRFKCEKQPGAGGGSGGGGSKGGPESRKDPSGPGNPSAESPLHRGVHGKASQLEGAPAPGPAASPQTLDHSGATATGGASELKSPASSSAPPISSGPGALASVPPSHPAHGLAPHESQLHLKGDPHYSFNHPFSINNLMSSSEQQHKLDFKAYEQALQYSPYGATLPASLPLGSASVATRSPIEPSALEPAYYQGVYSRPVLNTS
Setting: whole designed probe, mean of two concentrations, ends assumed
GTGAGCGGTGCCCATTGATGGGGAACATGGTAGAGGGAGCTGGCCCTGCATACTGGTATCAGCGTAAAGAACAGTCAGGCGTGCCTGTGAGCAAGGCAGGGCCGTGACTCAGACTTCAGTAATCTCGAAGTGTGAGTTCAACCCAGAAAAATGCTGTCTCAGGTTTTGCAGACTTGTCAGAAATAAATCACCAACTTTAGGAAGCTTTGGTGCAAGAGCTTTCACTGGGATCGTGGGGAC: -0.0726 ratio
GTGAGCGGTGCCCATTGATGGGGAACCCCTCATCCTGGGTGTCGGGGTGGGAGGTGTTCTCATCATGAATGGGAGGCGTACCCAGATCCAGCTCTGCCTTTTTTTAACCAAACCAGAGTGTAAACAAATGGCTGTGTGTCACACCATAATCGACATAGCAAGATATGATACATGCCAGGAGAGAAAAAGAAAGTGCTGATGGAAAAATAATCTCATTAGTTTCACTGGGATCGTGGGGAC: 0.347 ratio
GTGAGCGGTGCCCATTGATGGGGAACACTGTAGTGACTCATGTCCAGCCCCAGTGCGAGTGTGTTCCTCTCTAAAGAAAACCCAGTGTGTGTGTTCTCTCTAAAGAAAATGTATTACTAAGTAAACAAAAAAAGCTACTAAGCTTAAAGTTACCAAAACAAGTTCCAGATGAGCAGGGCCCAGAGGCATTTTCTGAAGAAGAGCCGTGCCCTGCCTTATTTTCACTGGGATCGTGGGGAC: 0.559 ratio
GTGAGCGGTGCCCATTGATGGGGAACCATTAGAGTCAAAGTTGTTAAGGGGAGCTAGTCATAGCTACCACGTGGCCAGGCATGTGGAACCAGACACCAGGCACACATCATGTAACATCATATTTACTTTAAATAATGAATCATCACTAGTTCATAGTGACACACTACTTGAGATATATAGAATAACATTATTACCCAGTAAGTATGTGAACATTCCGATTTTCACTGGGATCGTGGGGAC: 0.323 ratio

Study 3 — method: RNA Bind-n-Seq; form: RNA; matrix: in vitro; concentration: not given; baseline: input RNA pool; direction: higher = stronger binding; measurement: bound/input enrichment
Target: RING finger protein unkempt homolog, zinc fingers 1-6, GST-SBP tag (UNK, Homo sapiens, UniProt Q9C0B0, residues 30-357)
Setting: RNA with constant flanks, human and mouse sites, ends assumed
Target sequence (chain): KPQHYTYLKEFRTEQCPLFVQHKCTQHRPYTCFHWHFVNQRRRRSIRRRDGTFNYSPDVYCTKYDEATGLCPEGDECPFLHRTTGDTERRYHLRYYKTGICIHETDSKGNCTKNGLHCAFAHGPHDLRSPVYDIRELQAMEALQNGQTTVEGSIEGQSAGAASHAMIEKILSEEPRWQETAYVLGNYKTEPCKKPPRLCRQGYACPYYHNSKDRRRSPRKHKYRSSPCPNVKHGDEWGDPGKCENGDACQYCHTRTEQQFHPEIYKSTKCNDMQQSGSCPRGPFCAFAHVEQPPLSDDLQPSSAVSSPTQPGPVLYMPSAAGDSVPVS
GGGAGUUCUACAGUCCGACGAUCAGUGAUUUACUGGAUUUCAGUGCGAUGUUUUCACCUCCUGUGAGCAGUGGGAAAAAUGGACCAACUUCUUUGGCAAGUGGACAUUUUACUGGCUCAAAUGUAGAAGACAGAAGUAGCUCACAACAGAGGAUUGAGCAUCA: 0.227 ratio
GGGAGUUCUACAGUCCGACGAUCGCCAGAGAAAACAAGUUCAUAGUUCGUGACUUCCAGUAUAACGAGGAGGAGAUGAAAGCAGAUAAAGAAGAAAUGACCAGGCUGUCUACUGACAAGAAGAAGCAGUUUGGACCACUUGUGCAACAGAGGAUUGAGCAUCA: 0.357 ratio
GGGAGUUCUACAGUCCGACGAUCGACGACCUGUUCCGCUUCAACAACAUUAACUUGGAUCCACUUACAGAAACUUAUGGGAUUCCUUUCUACCUACAAUACCUCGCCCACUGGCCAGAGUAUUUCAUUGUUGCAGAGGCACCUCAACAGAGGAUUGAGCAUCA: 0.237 ratio
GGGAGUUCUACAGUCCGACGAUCUCAGCUAAAGCAGCUAUUGACUGGUUUGAUGGUAAAGAAUUCUCCGGAAAUCCUAUCAAGGUCUCAUUUGCUACUCGCCGGGCAGACUUUAAUCGGGGUGGUGGCAAUGGUCGUGGAGGCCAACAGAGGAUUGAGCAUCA: 0.0854 ratio
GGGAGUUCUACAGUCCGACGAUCUUUGUAACUUAUCUGUAAAAGGUUUCUCCCUACUGUCAAAAAAAUAUGCAUGUAUAGUAAUUAGGACUUCAUUCCUCCAUGUUUUCUUCCCUUAUCUUACUGUCAUUGUCCUAAAACCUUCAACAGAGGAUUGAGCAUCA: 1.71 ratio
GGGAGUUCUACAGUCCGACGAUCAAUAUGGCAUCUUCCUUGCUUGCUAUAGCAGGGGAAGGGAAAAUGCCAGUCUUUUUAAUCUAGCAAGCUUCUCGAUCUUAUAAUUAUUAUUUUUUUAAAUUCUGGUCAUGGAUGCUUCUUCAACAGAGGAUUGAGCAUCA: 4.88 ratio
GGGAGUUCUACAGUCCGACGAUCCUAGCACAAGGAGACAUGAAACAGCUGGCUGAAGAUGUGAAGCUGCAGCUGUAUAAGUUACUAGAAAUUCCUGAUCCAGACAAAAACUGGGCUACUCUGGCGCAGAAAUUAGGUCUGGGGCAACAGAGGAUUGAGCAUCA: 0.338 ratio
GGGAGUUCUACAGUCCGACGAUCCUGUAUUGACCAAAGCUUUCAGUUGUUCUUCAUUCUGUGCUCAGGAUUGAAAUGCUGCGUAGACGUUGUGUUGUUAGUGCUGGGCACGGAUUCUGGGACGGUGAGCUGUUGAUUUCCUAACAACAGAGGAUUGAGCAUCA: 0.0947 ratio

Study 4 — method: RNA Bind-n-Seq; form: RNA; matrix: in vitro; concentration: 365 nM; baseline: no-protein control; direction: higher = stronger binding; measurement: RBNS enrichment (R)
Target: RNA binding protein fox-1 homolog 2, RRM domain, GST-SBP tag (RBFOX2, Homo sapiens, UniProt O43251-10, residues 100-194)
Setting: natural RNA segment, single round, ends assumed
Construct (chain): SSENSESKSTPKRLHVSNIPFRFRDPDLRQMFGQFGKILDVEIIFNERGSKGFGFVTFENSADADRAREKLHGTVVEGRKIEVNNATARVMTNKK
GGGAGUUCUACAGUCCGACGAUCAGUACUGGGCCUUUCUCAGAAGACUUAAUGUACCUGAAGUUUCUGAAAUAUUGCAAAGUUCAGGCUGGUGCUGCCAAAAAGAAAAGUGAUGUAAAGUUUAUUUUUAAGAAUGGAAUUCUCGGGUGCCAA: 1.11
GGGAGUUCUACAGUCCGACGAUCAGCAGGCCGUGCGUGCGGACAGUCCUCAUUGCUGUGAGCGCAGUUACCACCUGGUGCCUCACUGUCAAACUGAACGAGGGGGUGUGGCCAUGGCCUGAGCCACUGUUCUGUGGAAUUCUCGGGUGCCAA: 0.352
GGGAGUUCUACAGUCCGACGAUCCCCCUGAGAGGAGGUCGAAUGGGUAAAGGAGCAUUUUUUUAUUCAGCAGACUUUCUCUGUGUAUGAGUGUGAAUGAUCAAGUCCUUUGUGAAUAUUUUCAACUAUGUAGGUGGAAUUCUCGGGUGCCAA: 0.666
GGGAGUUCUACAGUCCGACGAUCCCGUGCCCCUAAAACAGCAGGCAGCUUCCCCCCCACCCUGGUGUGCACACCAGGAGUGUUUGCACAGAAUACUGGGUGUCUUCUGUCUUGAAGAAAGGCAGUGUCCCCGAUGGAAUUCUCGGGUGCCAA: 0.564
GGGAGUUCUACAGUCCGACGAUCGGUACUUGUGUACUUGUACAUAAAACCAAAAUUAUAGUUGGGAAAAAAAUAAAUUUAUAUAUGAAAAUGUCAAAAUCAUUUUAAAAGUAUUAUUUUCAAAUAAAAUGGAGUGGAAUUCUCGGGUGCCAA: 0.778
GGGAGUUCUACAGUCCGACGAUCUUCCAGAUGAGUGUUACAUAGAUUCUUUGAAUUUAGUAUAAAAGUACUGAGAAUUAAGUUUGUACUUCCAUAAGCUUGGAUUUUAAACACUGAUAGUAUCUCAUGAGUAAUGGAAUUCUCGGGUGCCAA: 0.401
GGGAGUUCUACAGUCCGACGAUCAUGCUGUUUGGGGCCCUCCCCCCAAGACUUCUCUCACUUGUUGAGUCUGUGUGCUCUCGCAAUGUUCCUGUCUAAUUCUUGACUGAUUCUGGGUCUGUCCUGACCUCUAGUGGAAUUCUCGGGUGCCAA: 0.407
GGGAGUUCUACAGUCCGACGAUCCCAAUUAUAAGUGUAGCCAUUUUUAAAAAGCAUUUAUAUGACCAGUCUUUUUCCCCUCAACCUGUGGUAUUUGCAGAUGACAACUUUGAAAAUAAAGCAGUCUCGGGCAGUGGAAUUCUCGGGUGCCAA: 0.56
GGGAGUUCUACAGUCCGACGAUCAGCAUAACUCAUUUACCUGUAUACUAAAACCCCUGUUGUACUGAUUUUUUUUUAUAAUAAGCCUUUUUACCUCUGUAAAAAUAUAUAUAUAUACAAGUGUAUGAUGUACAUGGAAUUCUCGGGUGCCAA: 0.961
